Measurements pooled from the literature.
A part holds a random share of what one study measured. Positions count from the first letter of the parent shown.

Series 1 — target: CCNE2, cyclin fold, Cln2 fusion (human); technique: yeast growth competition, sequencing; matrix: yeast; notes: strong parent motif; relative to: not given; reading: higher = stronger binding
Parent: BRCA2 docking peptide (human); PSIKRNLLNEFDR
`P1I`: “normalised enrichment score” 0.857.
Under “normalised enrichment score”, `F11E` is recorded as -0.144.
`I3Q`: “normalised enrichment score” -0.116.
For `R13F`, “normalised enrichment score” read 1.16.
`S2I`: “normalised enrichment score” 0.985.
`P1R`: “normalised enrichment score” 1.95.
`L7S` — result for “normalised enrichment score”: -0.975.
`L7Y` — result for “normalised enrichment score”: 0.154.
For `D12C`, “normalised enrichment score” read 2.02.
Under “normalised enrichment score”, `F11H` is recorded as 0.23.
`R5A L7A` — result for “normalised enrichment score”: 0.0389.
`L7I`: “normalised enrichment score” 0.739.
Under “normalised enrichment score”, `R13T` is recorded as 1.47.
For `P1Y`, “normalised enrichment score” read 3.12.
Under “normalised enrichment score”, `N6I` is recorded as 0.499.
Under “normalised enrichment score”, `E10D` is recorded as 2.52.
Under “normalised enrichment score”, `L7C` is recorded as -0.802.
For `N6F`, “normalised enrichment score” read 1.44.

Series 2 — technique: protein-binding microarray; form: double-stranded DNA, one strand shown; matrix: in vitro; concentration: 2540 nM top; notes: 60-bp whole probe; together with: salmon DNA 0.4 mg/ml; relative to: random background probes; reading: higher = stronger binding; constant ends, left off below: GCCTAGCAC … GTCTTGATTCGCTTGACGCTGCTG
Target: Interferon regulatory factor 3, full length, phosphomimetic (IRF3, Homo sapiens, UniProt Q14653, residues 1-427, S386D/S396D/S398D/S402D/T404D/S405D)
Residues (chain): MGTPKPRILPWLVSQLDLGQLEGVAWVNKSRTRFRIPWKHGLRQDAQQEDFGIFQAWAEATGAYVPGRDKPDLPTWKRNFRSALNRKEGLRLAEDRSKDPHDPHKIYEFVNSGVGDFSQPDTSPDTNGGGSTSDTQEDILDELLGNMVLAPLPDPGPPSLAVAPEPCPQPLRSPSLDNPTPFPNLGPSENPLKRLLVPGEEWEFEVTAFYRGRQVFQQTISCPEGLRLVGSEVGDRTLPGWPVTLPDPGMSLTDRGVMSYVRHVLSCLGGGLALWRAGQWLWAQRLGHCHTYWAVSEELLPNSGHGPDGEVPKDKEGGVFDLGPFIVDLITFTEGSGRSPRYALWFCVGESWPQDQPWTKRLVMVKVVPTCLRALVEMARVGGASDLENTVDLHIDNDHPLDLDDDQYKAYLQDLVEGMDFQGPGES
Under “fitted relative affinity”, `AACGGTTTCCTTTTCCTGACGTGCTAG` is recorded as 11.1 z-score.
For `ATTGTTTCCTTCCTCTTTTAGTGCTAG`, “fitted relative affinity” read 7.37 z-score.
`TCAAATTTTCATTTTCCACTGTGCTAG`: “fitted relative affinity” 2.72 z-score.
Under “fitted relative affinity”, `TTCGAACTGAGTATCGATTAGTGCTAG` is recorded as 0.394 z-score.
Under “fitted relative affinity”, `TTAGGCCTCCTTCTCCTTTAGTGCTAG` is recorded as 0.988 z-score.
Under “fitted relative affinity”, `TTTGAACTGGGGACTGGATTAGTGCTA` is recorded as -0.566 z-score.
`TTAGGTTTCGGTTTCGGTTGGTGCTAG` — result for “fitted relative affinity”: 11.2 z-score.
For `TTAGAACTGGGTCTCGATTAGTGCTAG`, “fitted relative affinity” read -0.628 z-score.
For `TCAGTTTTGTTTTTCATACTGTGCTAG`, “fitted relative affinity” read 5.03 z-score.
For `GACGGTTTGGACTATCGGGACGTGCTA`, “fitted relative affinity” read 0.0552 z-score.
`TCACATTTTCGTTTTGTACTGTGCTAG` — result for “fitted relative affinity”: 3.76 z-score.
`AGACAAGCATTTGGTGATGCGTGCTAG`: “fitted relative affinity” -0.704 z-score.
`ATAGAACTGGGGTATCGATTAGTGCTA` — result for “fitted relative affinity”: -0.26 z-score.
`GACGGACTAGACTATCGGGACGTGCTA` — result for “fitted relative affinity”: -0.183 z-score.
`GACGGTATCGCGTTTCGGGACGTGCTA`: “fitted relative affinity” 1.65 z-score.
Under “fitted relative affinity”, `TCAAATGATTGGTTGAAACTGTGCTAG` is recorded as -0.247 z-score.
Under “fitted relative affinity”, `TCACCTCTAACTTTCCAACTGTGCTAG` is recorded as 1.8 z-score.
`AACGAACTGGGGTATCGAGACGTGCTA` — result for “fitted relative affinity”: -0.487 z-score.
`GACGGTATCCGTATCGGGACGTGCTAG` — result for “fitted relative affinity”: 4.34 z-score.

Series 3 — target: CEP164, C-terminal peptide (human); technique: DHFR complementation, deep sequencing; matrix: yeast; relative to: wild type; reading: higher = weaker binding
Notes: single substitutions, model-inferred values
Parent: PDZK1, PDZ domain 2 (human); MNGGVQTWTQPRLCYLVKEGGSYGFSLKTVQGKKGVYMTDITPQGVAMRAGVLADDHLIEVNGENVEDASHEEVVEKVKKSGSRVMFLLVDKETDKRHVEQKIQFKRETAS; partner HNRVKVYRF
For `E73R`, “binding free energy change” read 0.168 kcal/mol.
Under “binding free energy change”, `K92Q` is recorded as 0.172 kcal/mol.
For `N62E`, “binding free energy change” read 1.32 kcal/mol.
For `R84T`, “binding free energy change” read -0.0461 kcal/mol.
For `G4D`, “binding free energy change” read 3.94e-07 kcal/mol.
Under “binding free energy change”, `H98Q` is recorded as 0.055 kcal/mol.
`Q101A` — result for “binding free energy change”: -0.121 kcal/mol.
For `G63T`, “binding free energy change” read 0.41 kcal/mol.
Under “binding free energy change”, `K28N` is recorded as 0.889 kcal/mol.
For `V78S`, “binding free energy change” read 1.84 kcal/mol.
`L13H`: “binding free energy change” -0.0248 kcal/mol.
For `H71K`, “binding free energy change” read 1.98 kcal/mol.
Under “binding free energy change”, `D68Q` is recorded as 0.107 kcal/mol.
`K80H` — result for “binding free energy change”: 0.638 kcal/mol.
Under “binding free energy change”, `F25C` is recorded as 1.35 kcal/mol.
`V85T` — result for “binding free energy change”: 0.981 kcal/mol.
`F25N`: “binding free energy change” 1.61 kcal/mol.

Series 4 — technique: DHFR PCA, deep sequencing; matrix: yeast; together with: (+)-ABA 0.032 µM; relative to: wild-type fitted maximum; reading: higher = stronger binding
Target: ABI1, truncated, D143A, DHFR fusion (Arabidopsis thaliana)
Notes: methotrexate growth selection, single substitutions
Parent: PYL1, truncated, DHFR fusion (Arabidopsis thaliana); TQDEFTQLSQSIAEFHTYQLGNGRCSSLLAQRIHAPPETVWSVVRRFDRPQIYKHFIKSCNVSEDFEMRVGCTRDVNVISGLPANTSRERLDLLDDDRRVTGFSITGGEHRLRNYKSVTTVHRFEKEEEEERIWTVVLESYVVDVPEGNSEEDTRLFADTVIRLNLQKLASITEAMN; partner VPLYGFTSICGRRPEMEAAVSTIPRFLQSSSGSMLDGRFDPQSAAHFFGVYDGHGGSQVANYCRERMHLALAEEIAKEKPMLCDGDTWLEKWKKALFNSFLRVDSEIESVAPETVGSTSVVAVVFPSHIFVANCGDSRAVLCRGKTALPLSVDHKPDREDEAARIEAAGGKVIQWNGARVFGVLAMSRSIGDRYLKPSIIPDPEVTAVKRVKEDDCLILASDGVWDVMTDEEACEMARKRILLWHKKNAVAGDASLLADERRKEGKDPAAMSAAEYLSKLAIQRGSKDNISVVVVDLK
Under “relative binding score”, `K54W` is recorded as 0.801%.
For `L112H`, “relative binding score” read -12.3%.
`N61R` — result for “relative binding score”: 47.6%.
Under “relative binding score”, `V78P` is recorded as -0.126%.
For `M176S`, “relative binding score” read 4.26%.
`Y53D` — result for “relative binding score”: -7.73%.
`P83I`: “relative binding score” -1.83%.
`E147S` — result for “relative binding score”: 4.49%.
For `T120M`, “relative binding score” read 3.66%.
Under “relative binding score”, `V100P` is recorded as -2.89%.
Under “relative binding score”, `I57T` is recorded as 3.06%.
Under “relative binding score”, `E89W` is recorded as 1.72%.
`N149E`: “relative binding score” 28.5%.
`E67M` — result for “relative binding score”: 3.15%.
`Q2L` — result for “relative binding score”: 60.3%.
For `S63K`, “relative binding score” read 42.3%.
For `T119Q`, “relative binding score” read -0.614%.
Under “relative binding score”, `L91H` is recorded as 7.03%.
Under “relative binding score”, `R49A` is recorded as 26.1%.
`E174S`: “relative binding score” 1.21%.
For `C72D`, “relative binding score” read 20.9%.
For `N77C`, “relative binding score” read 58.6%.
`I172F`: “relative binding score” -7.83%.
`E131H` — result for “relative binding score”: 60.6%.

Other studies, line by line
For `PhoQ, residues 284 288 289 292 302 303 SVTLVV`, the fold induction was 4.48 (PhoP, residues 12 14 15 18 19 TPWLV (Escherichia coli, UniProt P23836); Sort-seq, item: YFP reporter; E. coli; PhoQ-PhoP variant library, together with: 10 µM Mg2+; relative to: high Mg2+ state, higher = stronger signaling).

Some of these lines once more (series 3):
For `G4D`, “binding free energy change” read 3.94e-07 kcal/mol.
For `H71K`, “binding free energy change” read 1.98 kcal/mol.
Under “binding free energy change”, `D68Q` is recorded as 0.107 kcal/mol.
`F25N`: “binding free energy change” 1.61 kcal/mol.
`K80H` — result for “binding free energy change”: 0.638 kcal/mol.
Under “binding free energy change”, `K28N` is recorded as 0.889 kcal/mol.
Under “binding free energy change”, `H98Q` is recorded as 0.055 kcal/mol.
`L13H`: “binding free energy change” -0.0248 kcal/mol.
`Q101A` — result for “binding free energy change”: -0.121 kcal/mol.
For `N62E`, “binding free energy change” read 1.32 kcal/mol.
For `V78S`, “binding free energy change” read 1.84 kcal/mol.
Under “binding free energy change”, `K92Q` is recorded as 0.172 kcal/mol.
